Assay results pooled from the literature.
A part holds a random share of what one study measured. Changes are numbered by the printed parent chain.

Series 1
Target: Prothrombin, mature alpha-thrombin (F2, Homo sapiens, UniProt P00734)
Technique: aptamer microarray, sandwich
Molecule type: DNA with 2'F-ANA
Sample: in vitro
Tested at: 200 nM
Setting: whole 15-mer aptamer, many near background
With: Cy3 exosite-II aptamer, 400 nM
Direction: higher = stronger binding
Strand: GGTTGGTGTGGTTGG
| Modification | mean fluorescence intensity |
| --- | --- |
| 2'F-ANA at 1 3 4 7 8 9 10 14 | 91.5 a.u. |
| 2'F-ANA at 6 10 11 15 | 140 a.u. |
| 2'F-ANA at 2 6 7 8 9 12 14 15 | 175 a.u. |
| 2'F-ANA at 4 10 12 13 14 | 64.2 a.u. |
| 2'F-ANA at 1 2 4 6 9 15 | 104 a.u. |
| 2'F-ANA at 1 2 3 4 6 7 10 11 14 | 47.3 a.u. |
| 2'F-ANA at 1 5 6 10 13 | 50.4 a.u. |
| 2'F-ANA at 1 2 3 7 9 13 15 | 181 a.u. |
| 2'F-ANA at 1 4 9 10 11 | 60.9 a.u. |
| 2'F-ANA at 1 3 10 | 86.6 a.u. |
| 2'F-ANA at 1 4 5 6 7 9 10 12 | 51.4 a.u. |
| 2'F-ANA at 2 5 6 8 11 12 13 14 | 48.2 a.u. |
| 2'F-ANA at 2 3 4 5 6 11 15 | 65.5 a.u. |
| 2'F-ANA at 3 9 10 12 13 14 15 | 375 a.u. |
| 2'F-ANA at 1 5 7 9 11 13 14 15 | 47.3 a.u. |
| 2'F-ANA at 1 2 5 7 8 9 11 | 55.5 a.u. |
| 2'F-ANA at 2 3 4 6 9 10 11 14 | 141 a.u. |
| 2'F-ANA at 3 4 7 9 11 14 | 340 a.u. |
| 2'F-ANA at 1 4 5 7 8 9 10 12 15 | 49.7 a.u. |
| 2'F-ANA at 1 5 6 9 10 11 14 15 | 45.9 a.u. |
| 2'F-ANA at 1 2 4 5 8 9 12 14 | 48.4 a.u. |

Series 2
Target: Histone acetyltransferase KAT6A, winged helix 1, GST fusion (KAT6A, Homo sapiens, UniProt Q92794, residues 1-85)
Technique: protein binding microarray
Molecule type: double-stranded DNA, one strand shown
Sample: in vitro
Tested at: not given
Setting: 8-mer, flanks averaged, mean of 2 arrays, mostly near background
Relative to: not given
Direction: higher = stronger binding
Residues (chain): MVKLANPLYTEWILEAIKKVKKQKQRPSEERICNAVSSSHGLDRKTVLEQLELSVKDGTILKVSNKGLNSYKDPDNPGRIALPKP
| Strand | E-score |
| --- | --- |
| GTCGAGAC | -0.0334 |
| CCAGGCAA | -0.0814 |
| CCCACCCC | 0.091 |
| AAGAAATT | -0.129 |
| TACCGTGA | 0.212 |
| CCGCAAAG | 0.238 |
| AATATTTG | -0.165 |
| GGTAATTA | 0.0531 |
| ACGACTTG | -0.15 |
| CGCTCGAG | 0.206 |
| CCGCATAG | 0.195 |
| TCTTATAA | 0.0399 |
| GCTAGGGA | -0.084 |
| CACAACTA | -0.0309 |
| CGATTAGA | -0.0364 |
| TCATCCGA | 0.0152 |
| GGCAGCCC | 0.2 |
| CGTGGCAG | -0.0918 |
| GTACGCAA | 0.105 |
| AGAACTAA | -0.118 |
| CTAGGATC | -0.0745 |
| GGGCCCGA | 0.201 |
| AAACGTGG | -0.183 |
| GGTAACAA | -0.0439 |
| CATCCCGC | 0.355 |

Series 3
Target: Interferon regulatory factor 5, full length, phosphomimetic (IRF5, Homo sapiens, UniProt Q13568-2, residues 1-514, S451D/S453D/S456D/S462D)
Technique: protein-binding microarray
Molecule type: double-stranded DNA, one strand shown
Sample: in vitro
Tested at: 940 nM top
Setting: 60-bp whole probe
With: salmon DNA 0.4 mg/ml
Relative to: random background probes
Direction: higher = stronger binding
All sequences stand within: GCCTAGCAC … GTCTTGATTCGCTTGACGCTGCTG
| Strand | fitted relative affinity [z-score] |
| --- | --- |
| GGCGGTCTCCTTTTCCTGACGTGCTAG | 0.631 |
| GAGGGTATCCTTATCCTGACGTGCTAG | -0.275 |
| GACGATATCAGACTGAAGACGTGCTAG | -0.783 |
| TCAAATATATATTCATAACTGTGCTAG | 0.0468 |
| TACGGTATCGACTATCGGGACGTGCTA | 4.67 |
| TTAGTTATCGGTTTCGGTTAGTGCTAG | 8.77 |
| GACGAACAGAGTCTCGAGACGTGCTAG | 0.186 |
| GACGCACTGCTTATCCTGACGTGCTAG | -0.192 |
| TTAGGTCTCGGTTTCCGTTAGTGCTAG | 5.48 |
| GAAGGTATCCTACTGCTGACGTGCTAG | -0.167 |
| GGCGGTTTCGGGTATCGGGACGTGCTA | 9.45 |
| GACGGTTCCGGTTTCCGGACGTGCTAG | 3.48 |
| GACGGTTTCGGTCTCCGGACGTGCTAG | 14.5 |
| GACGATTTCGGGTTTCGTGACGTGCTA | 1.11 |

Series 4
Target: RNA binding protein fox-1 homolog 2, RRM domain, GST-SBP tag (RBFOX2, Homo sapiens, UniProt O43251-10, residues 100-194)
Technique: RNA Bind-n-Seq
Molecule type: RNA
Sample: in vitro
Tested at: 365 nM
Setting: natural RNA segment, single round, ends assumed
Relative to: no-protein control
Direction: higher = stronger binding
All sequences stand within: GGGAGUUCUACAGUCCGACGAUC … UGGAAUUCUCGGGUGCCAA
Residues (chain): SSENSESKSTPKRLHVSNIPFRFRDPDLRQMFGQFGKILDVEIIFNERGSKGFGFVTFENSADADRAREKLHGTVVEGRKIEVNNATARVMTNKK
| Strand | RBNS enrichment (R) |
| --- | --- |
| GGAAGGAAGUGGAUGCAGGGUGGAACAAAGAACCUCCGGUCACUGUAGCCCCUCUUCUCUGCUCUGCCCCUCCUUUCCUGUCCCCUCCUUUAGCCCCUUCCCCCAAGGAC | 0.75 |
| CGAGGCCUCUGUGGUUGUGCCGCGGGUUUGCUGCUGUGCUGAGUCCUUCUGGGGGAGCCCUAAGAGGUGGGGAGCAGAGGACUUUUGCUCAGACACCCUUUGCCUGGAAG | 0.851 |
| GACAAUAGGAAGAGAUGUCAUCUCUGCUCUCCCUGUAAAUGUUAGUUGAACUAAGUUAUGGAUUUGUGGUCUUUCAAAUACAUGACGCCUUUAGUAUGCCACACUGAAAU | 0.766 |
| AAUCCACAGUGCAGAAAAGCCUCAAAGCACAGGAGUUUAGGAGAAGCUUUGGUUGUAGUGUGAGCAUCAUUUGGCAUUAGAGAAACCAUGUACUAGUGGAAAAGUCUAGU | 0.736 |
| UCAUGCUUCUACAAGGUGAAGUGUGUUUGGGGAAACUGAGCUCUAACAAAAGCCGCGACAGCCACCAGGCAGGCUUUUCCUUAUACAUGACAGAAGUUCGUAUUACGCCU | 0.299 |
| GACUUUAUUGGAAUCUGGAGAGUUUAACUGCCUUCUCUUGGUCUCCUCACUUACUUCUUAUGAAGUUGGCAUUACCUGAGACUCUUAGCUGUGAUUAGGUACAAGCUUAC | 0.443 |
| AAAGAUGGGGGGAAGGGAAAUAUGAGCCUUUGUUGCUUUCAAAACGAGAACAGUUUGUACAAGUUUUUUUUUUUGAAUAAAACUUUUCCAAUGAAAUGUUAUAGGUGUGU | 1.02 |
| ACCAGAGGGAGAAGCCCGAUGCCCCAUCCCGGCUUUCCCGUAACGCACAGGACACGUGUGCAAUUCAUAGGAACGGCCCAGAUCGCCCUCAUGAGUGCCACCUGGUACAG | 0.443 |
| GAAUUGUCGCCUCCUGCUCUUUUGUUACUGAGUGAGAUAAGGUUGUUCAAUAAAGACUUUUAUCCCCAAGGUCUCUCUGUGUCUGUUUUCUGGGGUGUCAUGGCUGGAGU | 1.97 |
| UCAUCCUAGGAUAGCUUCCUGGAAGCAGAACCAAGAAGCCAGAAGGUUCUUCCUAGGGUGGCCUUGGCUCCCUGAAGGAAUCUGAAAUGCUGACCCUGUCACAACCUCCC | 0.287 |
| AGAUAGUCUUGCCGCAUCUUGGCAAGUUGCAGAGAUGGUGGAGCUAGAAAAAAAAAAAAAAAAGCCCUUUUCAGUUUGUGCACUGUGUAUGGUCCGUGUAGAUUGAUGCA | 2.43 |
| GCUGAACGUUCUCUCAGCCCAGAGCAGCAAACACAUGAAAGUCAGAAGUCUCUAAUAUAUCAUUUGUCUUUUUUCCAGUGAGGUAAAAUAAGGCAUAAAUGCAGGUAAUU | 0.677 |

Series 5
Target: CCNE2, cyclin fold, Cln2 fusion (human)
Technique: yeast growth competition, sequencing
Sample: yeast
Setting: weak parent motif
Relative to: not given
Direction: higher = stronger binding
Starting sequence: DBF4 docking peptide (human); DDIVSKLVFDFVE
| Change | normalised enrichment score |
| --- | --- |
| K6A | 0.00934 |
| D2A | 0.269 |
| V8A | -0.0383 |
| L7A | -0.131 |
| V4A | 0.0738 |
| S5A | -0.213 |

Series 6
Target: ABI1, truncated, D143A, DHFR fusion (Arabidopsis thaliana)
Technique: DHFR PCA, deep sequencing
Sample: yeast
Setting: methotrexate growth selection, single substitutions
With: (+)-ABA 2500 µM
Relative to: wild-type fitted maximum
Direction: higher = stronger binding
Starting sequence: PYL1, truncated, DHFR fusion (Arabidopsis thaliana); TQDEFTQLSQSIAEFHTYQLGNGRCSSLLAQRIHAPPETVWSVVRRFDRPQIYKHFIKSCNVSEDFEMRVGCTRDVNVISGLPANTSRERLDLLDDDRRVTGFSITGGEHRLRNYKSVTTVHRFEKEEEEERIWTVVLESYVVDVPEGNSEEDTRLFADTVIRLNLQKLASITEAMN
| Change | relative binding score |
| --- | --- |
| D75P | 25.8% |
| L91T | -0.0714% |
| N22E | 102% |
| Y53M | 82.7% |
| D153K | 10.3% |
| D144I | 77.5% |
| Y18D | 89.4% |
| P50R | -4.06% |
| I162E | 13% |
| A13S | 96.7% |
| T86A | 96.1% |
| N177G | 95% |
| M68F | 91.5% |
| Y18N | 107% |
| G71A | 80.3% |
| D144Q | 86.9% |

Series 7
Target: Protein C-ets-1 (ETS1, Homo sapiens, UniProt P14921, residues 1-441, full length assumed)
Sequence of UniProt P14921 (whole entry, looked up): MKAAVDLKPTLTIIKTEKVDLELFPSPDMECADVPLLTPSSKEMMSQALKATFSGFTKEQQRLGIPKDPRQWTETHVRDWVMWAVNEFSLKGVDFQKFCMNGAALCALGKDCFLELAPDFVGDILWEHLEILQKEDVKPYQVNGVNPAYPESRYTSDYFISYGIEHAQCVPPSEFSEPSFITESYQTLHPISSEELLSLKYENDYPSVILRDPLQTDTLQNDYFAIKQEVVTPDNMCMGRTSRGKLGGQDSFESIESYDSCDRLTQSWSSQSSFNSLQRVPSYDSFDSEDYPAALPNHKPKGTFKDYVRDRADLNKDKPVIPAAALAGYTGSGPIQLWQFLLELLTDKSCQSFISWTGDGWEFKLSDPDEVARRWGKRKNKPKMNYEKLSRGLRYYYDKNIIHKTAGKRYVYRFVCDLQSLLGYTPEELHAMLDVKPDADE
Technique: protein-binding microarray
Molecule type: double-stranded DNA, one strand shown
Sample: in vitro
Tested at: not given
Setting: k-mer, scored over probes, only values ≥0.25
Direction: higher = stronger binding
| Strand | E-score |
| --- | --- |
| CAGGAAGG | 0.451 |
| CACGGGAA | 0.304 |
| CACTTCCC | 0.446 |
| ATGACCGG | 0.266 |
| GCCGGATA | 0.471 |
| ACGGGATG | 0.361 |
| AATCTTCC | 0.281 |
| CCGGTCAC | 0.352 |
| GCAAAGGA | 0.277 |
| CGACATCC | 0.41 |
| CCGGGACC | 0.292 |
| AGCGGAAT | 0.323 |
| CCAACGGA | 0.251 |
| GAAGGAAC | 0.304 |
| CATGTAGG | 0.277 |
| GGAAGCGA | 0.401 |
| CCGGTCGA | 0.308 |
| TCCGGTCA | 0.465 |
| CCACCGGA | 0.46 |
| CTCTCCCC | 0.281 |
| CTTCCTGC | 0.475 |
| AGGGAAGC | 0.33 |
| GCATATCC | 0.421 |
| AAGGAAGC | 0.43 |
| ATCCGCCA | 0.42 |

For quick reference, copied from above (series 4):
| Strand | RBNS enrichment (R) |
| --- | --- |
| UCAUGCUUCUACAAGGUGAAGUGUGUUUGGGGAAACUGAGCUCUAACAAAAGCCGCGACAGCCACCAGGCAGGCUUUUCCUUAUACAUGACAGAAGUUCGUAUUACGCCU | 0.299 |
| GACUUUAUUGGAAUCUGGAGAGUUUAACUGCCUUCUCUUGGUCUCCUCACUUACUUCUUAUGAAGUUGGCAUUACCUGAGACUCUUAGCUGUGAUUAGGUACAAGCUUAC | 0.443 |
| AAAGAUGGGGGGAAGGGAAAUAUGAGCCUUUGUUGCUUUCAAAACGAGAACAGUUUGUACAAGUUUUUUUUUUUGAAUAAAACUUUUCCAAUGAAAUGUUAUAGGUGUGU | 1.02 |
| ACCAGAGGGAGAAGCCCGAUGCCCCAUCCCGGCUUUCCCGUAACGCACAGGACACGUGUGCAAUUCAUAGGAACGGCCCAGAUCGCCCUCAUGAGUGCCACCUGGUACAG | 0.443 |
| GAAUUGUCGCCUCCUGCUCUUUUGUUACUGAGUGAGAUAAGGUUGUUCAAUAAAGACUUUUAUCCCCAAGGUCUCUCUGUGUCUGUUUUCUGGGGUGUCAUGGCUGGAGU | 1.97 |
| UCAUCCUAGGAUAGCUUCCUGGAAGCAGAACCAAGAAGCCAGAAGGUUCUUCCUAGGGUGGCCUUGGCUCCCUGAAGGAAUCUGAAAUGCUGACCCUGUCACAACCUCCC | 0.287 |
| AGAUAGUCUUGCCGCAUCUUGGCAAGUUGCAGAGAUGGUGGAGCUAGAAAAAAAAAAAAAAAAGCCCUUUUCAGUUUGUGCACUGUGUAUGGUCCGUGUAGAUUGAUGCA | 2.43 |
| GCUGAACGUUCUCUCAGCCCAGAGCAGCAAACACAUGAAAGUCAGAAGUCUCUAAUAUAUCAUUUGUCUUUUUUCCAGUGAGGUAAAAUAAGGCAUAAAUGCAGGUAAUU | 0.677 |
